Measurements from different studies.
Every numbered part comes from another study and shows a few of its results, in no order. Positions count from the first letter of the parent shown.
Chain of UniProt P28223 (whole entry, looked up): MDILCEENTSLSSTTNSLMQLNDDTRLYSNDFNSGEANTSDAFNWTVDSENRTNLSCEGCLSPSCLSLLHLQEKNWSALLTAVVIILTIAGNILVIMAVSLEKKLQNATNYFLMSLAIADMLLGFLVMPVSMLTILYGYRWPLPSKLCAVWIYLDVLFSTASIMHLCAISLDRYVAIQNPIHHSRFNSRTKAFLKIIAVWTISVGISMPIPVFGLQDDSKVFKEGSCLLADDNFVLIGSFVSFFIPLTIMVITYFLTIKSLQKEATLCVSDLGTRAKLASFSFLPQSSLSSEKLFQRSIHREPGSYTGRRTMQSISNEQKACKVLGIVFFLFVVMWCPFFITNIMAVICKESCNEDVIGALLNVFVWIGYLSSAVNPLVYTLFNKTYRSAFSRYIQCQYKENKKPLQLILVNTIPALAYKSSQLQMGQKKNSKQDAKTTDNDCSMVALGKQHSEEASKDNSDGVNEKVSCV

Series 1
Target: UDP-N-acetylglucosamine--peptide N-acetylglucosaminyltransferase 110 kDa subunit (OGT, Homo sapiens, UniProt O15294)
Observed: binding
Method: phage display NGS
Molecule type: peptide
Reference: input library
Target sequence (O15294 1-1046): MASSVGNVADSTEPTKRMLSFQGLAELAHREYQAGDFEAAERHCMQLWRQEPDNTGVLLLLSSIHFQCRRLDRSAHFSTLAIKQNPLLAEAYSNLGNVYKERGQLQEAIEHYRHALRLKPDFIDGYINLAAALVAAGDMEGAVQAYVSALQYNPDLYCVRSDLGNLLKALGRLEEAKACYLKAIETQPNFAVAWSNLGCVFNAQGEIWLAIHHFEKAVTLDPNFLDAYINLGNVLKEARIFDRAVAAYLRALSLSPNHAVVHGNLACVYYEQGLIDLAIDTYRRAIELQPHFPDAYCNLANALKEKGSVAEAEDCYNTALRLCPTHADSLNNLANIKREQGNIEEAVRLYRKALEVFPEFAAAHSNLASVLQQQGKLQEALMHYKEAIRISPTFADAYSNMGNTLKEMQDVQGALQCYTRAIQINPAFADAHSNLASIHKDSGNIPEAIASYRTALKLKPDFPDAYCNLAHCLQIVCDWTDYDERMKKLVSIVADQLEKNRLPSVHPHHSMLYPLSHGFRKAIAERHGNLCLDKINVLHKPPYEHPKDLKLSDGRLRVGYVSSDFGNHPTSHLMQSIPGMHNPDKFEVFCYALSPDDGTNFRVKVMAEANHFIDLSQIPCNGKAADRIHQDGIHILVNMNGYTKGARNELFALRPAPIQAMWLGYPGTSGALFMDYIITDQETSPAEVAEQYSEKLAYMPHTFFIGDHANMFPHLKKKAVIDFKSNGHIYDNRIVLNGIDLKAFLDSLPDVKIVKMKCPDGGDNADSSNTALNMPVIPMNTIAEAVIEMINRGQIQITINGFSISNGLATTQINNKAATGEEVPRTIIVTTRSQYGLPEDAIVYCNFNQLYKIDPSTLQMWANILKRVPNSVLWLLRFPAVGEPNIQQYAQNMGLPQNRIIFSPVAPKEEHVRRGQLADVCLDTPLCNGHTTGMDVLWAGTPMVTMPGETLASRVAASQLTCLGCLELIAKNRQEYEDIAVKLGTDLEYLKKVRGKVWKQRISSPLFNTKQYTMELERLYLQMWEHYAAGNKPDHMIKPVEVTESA
| Sequence | minimum log2 enrichment ratio |
| --- | --- |
| YPPYAFHQATHHHHK | 3.25 |
| HDTMHHFYHKREWTQ | 1.52 |
| WTSQWQTRHPHHHTS | 3.06 |
| IQYPQVYPPKYQIMV | 5.81 |
| DRLFLPAYQIYPDVV | 4.21 |
| YTIDVVFEPKYQIMT | 3.01 |
| HLGHPHFYNHVYHYA | 1.8 |
| NTTHQVHRFKWHQHT | 2.03 |

Series 2
Target: CCND2, cyclin fold, Cln2 fusion (human)
Method: yeast growth competition, sequencing
Sample: yeast
Notes: weak parent motif
Reference: not given
Reading: higher = stronger binding
Parent: viral docking peptide; CKVKRKLFGSENI
| Change | normalised enrichment score |
| --- | --- |
| K4A | 0.295 |
| F8L | -0.037 |
| N12A | 0.345 |
| K2A | 0.265 |
| L7A | 0.146 |
| R5K | -0.965 |
| G9A | 0.249 |
| S10A | 0.342 |

Further values, each from its own experiment
Concentration: 10 µM
| Structure (SMILES) | target | observed | mode | notes | inhibition [%] |
| --- | --- | --- | --- | --- | --- |
| CCN(CC)S(=O)(=O)c1cccc(-n2sc3ccccc3c2=O)c1 | chymotrypsin | enzyme activity | inhibitor | with DTT | 9.1 |
| CCOCCn1cc(C(=O)Nc2ccc(-n3nc(-c4cccnc4)cc3C(F)(F)F)cn2)ccc1=O | 5-hydroxytryptamine receptor 2A (HTR2A, Homo sapiens, UniProt P28223) | cell-free assay | – | – | -4.26 |

For quick reference, copied from above (series 1):
| Sequence | minimum log2 enrichment ratio |
| --- | --- |
| YPPYAFHQATHHHHK | 3.25 |
